# Measurements pooled from the literature.
# Parts stem from different laboratories: compare values within a part only. Positions count from the first letter of the parent shown.

# Series 1
# Target: Histone acetyltransferase KAT6A, winged helix 1, GST fusion (KAT6A, Homo sapiens, UniProt Q92794, residues 1-85)
# Technique: protein binding microarray
# Molecule type: double-stranded DNA, one strand shown
# Medium: in vitro
# Tested at: not given
# Notes: 8-mer, flanks averaged, mean of 2 arrays, mostly near background
# Relative to: not given
# Reading: higher = stronger binding
# Residues (chain): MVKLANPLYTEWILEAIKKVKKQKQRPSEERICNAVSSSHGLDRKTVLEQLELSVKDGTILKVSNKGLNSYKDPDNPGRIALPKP
Strand,E-score
AAGTCGGA,-0.0305
AGGCATAG,-0.0184
CTGCATAC,-0.114
AGTGGCGC,0.192
AGCACTTA,-0.165
AGACCTCT,-0.169
GTCTAAAA,-0.0445
GCTCTGCC,-0.065
AAGATCGG,0.229
AGACAGTC,0.0345
GGACGTAA,0.106
ATGTTAAA,-0.138
ATCACCCG,0.267
GGTGGTTA,0.014
CCGCTATA,0.246
TGTCAACA,-0.235
CGTGCACC,-0.11
GCCCCGCA,0.278
AGACCATG,-0.14

# Series 2
# Target: RNA binding protein fox-1 homolog 2, RRM domain, GST-SBP tag (RBFOX2, Homo sapiens, UniProt O43251-10, residues 100-194)
# Technique: RNA Bind-n-Seq
# Molecule type: RNA
# Medium: in vitro
# Tested at: 365 nM
# Notes: natural RNA segment, single round, ends assumed
# Relative to: no-protein control
# Reading: higher = stronger binding
# All sequences stand within: GGGAGUUCUACAGUCCGACGAUC … UGGAAUUCUCGGGUGCCAA
# Construct (chain): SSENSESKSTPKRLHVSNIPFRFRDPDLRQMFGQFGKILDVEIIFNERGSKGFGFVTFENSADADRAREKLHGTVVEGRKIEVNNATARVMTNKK
Strand,RBNS enrichment (R)
CAACAUAGCCAUAGUCCUUUGAAGUAAGUGGCUAGAAACAGCACUCUGGUUAUAAUUGCCCCAGGGCCUGAUUCAGGACUGACUCUCCACCAUAAAACUGGAAGCUGCUU,0.35
GGCGUUCACAGCCCCCAUACAUGGAUCUUGUUUAAAGUGUAUUAUUUAAAAGGUCAGGGUGUUAUUUUCUUCUAUAAUAAAACAGCUCACUUGUGUUGUGCUCCAGAGUG,0.596
UUAUUCCACACAGCAGUUUGACUUUGUAAAAGUUUAGCAAAAUAACUGAUUGUUUUGGAUAACUCAACAUGUUUUUCUUAAAUGCUGUUUUAGUAUUUUCUACCUCUUAA,0.338
AGAUGGAAUCUUGGGGACAGGAGGGAGAGGGUUGGUAACUACUGUGAGCAAGUCCCCCAAGCCCUGACCAGCCUCCUCCCAUGACUGGUGACUGUUUAACAAGCUGUGCA,4.38
CACCCAUGUAGCUGCUGUGUUGUGUAUAUAUUACUCUUAAGAGGAGUGUGUGUGUCUGUGUUUGUUUUAAAAGUCACUUAUUUCUUACAGUGAUUUCAAUUGCACCAUGA,1.61
CCUGUCCGUCAGAGACUUCUCAAUCCAGUGGCAGUUGGGAUGGGGUUAUGAGGCCUGUCAGGUCUAUGCACAGCAGGGACUCUGUCUUUGGUGAGCUUUCUCAGAGCCAU,0.286
CCACAGACCUUUGGGCUGCCUUAUAUUGUGUGUGUGUGUGGGUGUGUGUGUGUUUUGACACAAAAACAAUGCAAGCAUGUGUCAUCCAUAUUUCUCUGCAUCUUCUCUUG,5.76
UUUGCUGUAGCCCUAGAGCACUUUGUUUGUGGGAGGCUGGCCUCUUGCCUACCUCCUUGCAUGGACAGGGGGAUGAAUAUUUACUUUCCCACCUCCUUGCUUUUUCUUUC,1.17
UAUAUUACUUUCUCAAAUUAAGUUACCAAAACAAACUGAAGAGCUGAAGCAGGUCUUCCAGACCCUGCGAUCCUUUCUGUAGCAGUGAUUCUAAAGUGGCGUUUGCUGUG,0.307
UUCUGGGCCUGGCUGUGAAGCCCUGUUUUUGGUAUUCAGAAUGGAUCUUUAAGGCUCAGAUGGGCUCAAAUUGAAACCUUGUGUUUUAUAAAAUGGAUGUUUAGUAAAGG,0.665
UUGUAAAUGCUAAUUUUUUAGGACUCUACUAGUUGGCAUACGAAAAUAUAUAAGGAUGGACAUUUUAUCGUCUCAUAGUCAUGCUUUUUGGAAAUUUACAUCAUCCUCAA,0.566
UUGUGGGGAGUGCGCUCCAGGAAGAGCCACCAUCCCUGCCCCCGUUUUCCCACCGGGGAGUCUGUACAGAGAUUUUUCUACGUUUUUAUUUUUUGCCUCAGAGGGAUGGG,0.696

# Series 3
# Target: CCNB2, cyclin fold, Cln2 fusion (human)
# Technique: yeast growth competition, sequencing
# Medium: yeast
# Notes: weak parent motif
# Relative to: not given
# Reading: higher = stronger binding
# Starting sequence: MASTL docking peptide (human); PMIAKNLMCELDE
Substitution,normalised enrichment score
PMIAKDLMCELDE [N6D],0.196
PMIAKNLMCEYDE [L11Y],0.664
PMCAKNLMCELDE [I3C],0.589
PMIAKNAMCELDE [L7A],-0.202
PMIAKNLMCVLDE [E10V],0.768
PMIAINLMCELDE [K5I],0.0507
PMIAKNNMCELDE [L7N],-0.128
PMIAKNLMEELDE [C9E],0.568
PEIAKNLMCELDE [M2E],0.952
PMIAKNLMCELWE [D12W],-0.11
PMIAWNLMCELDE [K5W],-0.0735
PMMAKNLMCELDE [I3M],-0.325
PMIAKNLMCEMDE [L11M],-0.325
PMIAKVLMCELDE [N6V],0.206
PMIAYNLMCELDE [K5Y],-0.0202
PMIAKNLMCELGE [D12G],0.546
PMISKNLMCELDE [A4S],0.101
PMIAKNLMCEFDE [L11F],2.87
PMIAKNLMYELDE [C9Y],0.867
PMIAKNLQCELDE [M8Q],0.0197
PMDAKNLMCELDE [I3D],-0.31
PMIADNLMCELDE [K5D],-0.247
PMIAKNLICELDE [M8I],0.729
PMIAKNLMVELDE [C9V],0.718
PWIAKNLMCELDE [M2W],0.433

# Series 4
# Target: Centromere-binding protein 1, full length, His-tagged (CBF1, Saccharomyces cerevisiae, UniProt P17106, residues 1-351)
# Sequence of UniProt P17106 (whole entry, looked up): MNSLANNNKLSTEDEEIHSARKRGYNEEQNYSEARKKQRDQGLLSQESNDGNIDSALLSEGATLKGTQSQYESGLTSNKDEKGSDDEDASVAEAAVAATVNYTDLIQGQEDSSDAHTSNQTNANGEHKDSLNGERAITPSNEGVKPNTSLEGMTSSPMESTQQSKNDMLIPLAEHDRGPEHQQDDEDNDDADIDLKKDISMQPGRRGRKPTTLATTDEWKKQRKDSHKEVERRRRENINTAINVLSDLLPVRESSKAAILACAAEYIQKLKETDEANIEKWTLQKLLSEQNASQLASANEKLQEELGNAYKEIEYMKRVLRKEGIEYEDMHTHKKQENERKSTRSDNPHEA
# Technique: competition protein-binding microarray
# Molecule type: double-stranded DNA, one strand shown
# Medium: in vitro
# Tested at: 2 µM
# Notes: whole 60-bp probe, lowest competitor level
# Together with: Pho4 competitor, 0.05 µM
# Reading: higher = stronger binding
# All sequences stand within: … GTCTTGATTCGCTTGACGCTGCTG
Strand,fluorescence intensity [a.u.]
GATACCAGGAATGTAACCGTGACGGTCAGCATAATC,76
AATTTATCTTGGCAAAACGTGGGTATGGAACTTTTG,115
GTCGACGATACATACAGAGCTGTTACAAAGTTCCAT,66.5
ATGAGCTACATTCACCACGTGTCGGAGACTGGGAAA,855
AAATTACTAAGTTGCGGAGTGGGTGACGCCGTATGA,80
TTACGGTAGAGGGAGCACATGGGCGGAAACAAACCT,120
CTAACGAAGGTTTAGCACGTGTTTTACAAGCCAAGT,2210
CGTCCTAGTGATTGTTGTGTGGGTGCCATGAGGAAG,90.4
TTAATACTGCCTGACGGCGTGCCAGAACAAGGAGCA,85.2
CTGCCGTTGCTTCAGCACATGTTCCAAAAGACCTTG,156
CGTCCTAGCGATTGAGATGTGGGTGCCATGAGGAAG,66.5
GCCCTGGACGGAAAGCACGTGCTAAAGTGTTGCCCG,1780
CGTCCTAGTGATTGTCACTCTACTTCCATGAGGAAG,70.6
ACCACAGTGTCGGCCAACGTGCTTTACATTGAAGAT,108
TGCAGCGGGTGCGGCCACGTTTTAAAGTGATTCTGC,102
CGGGGTTAAGTTTGTCACTGGACTTGCTTGCAGCAG,69.6
TACGTCCAGCCAAATCACATGATACTGGCTTGAACA,783
CACAGATGAGTCAGCTTCGTGATGGCCTGTTTCGGT,70.4
ATTCTCGTAATTATTCTCGTGATGGCGTTTGCAACC,286
CTTTCCCGATCTTGTCTTGTGGGTGTAGCACATTTG,73.6
AGGATGAGGAGGAGTTAGCAGAGGTATTCGCTAAGC,61
CCGTCCTTTTCACTTCACGTTCGCAGGGCTTTCCTG,78.5
AAGAAAGTTCCACTTCACGTTTCCCCAGCTTTCCGG,87.3
CTTTCCCGATCTTGACGCGTGGGTGTAGCACATTTG,84.4
GTCTTGTCTCATTGTCTCGTGGGTGTCCCCACTTCA,112

# Series 5
# Target: Prothrombin, mature alpha-thrombin (F2, Homo sapiens, UniProt P00734)
# Technique: aptamer microarray, sandwich
# Molecule type: DNA with 2'F-ANA
# Medium: in vitro
# Tested at: 200 nM
# Notes: whole 15-mer aptamer, many near background
# Together with: Cy3 exosite-II aptamer, 400 nM
# Reading: higher = stronger binding
# Strand: GGTTGGTGTGGTTGG
Modification,mean fluorescence intensity [a.u.]
2'F-ANA at 1 2 5 6 7 11 12 13 15,66.6
2'F-ANA at 1 5 6 7 13 14,47.1
2'F-ANA at 1 7 9 14,69.1
2'F-ANA at 1 2 3 8 9 10 11 12 14 15,122
2'F-ANA at 2 4 5 10 14,42.5
2'F-ANA at 1 2 3 4 5 6 7 8 9 10 11 12 14 15,49.7
2'F-ANA at 1 2 6 7 8 9 10 11 12 13 14 15,55.4
2'F-ANA at 1 2 6 7 8 10 14 15,48.7
2'F-ANA at 4 6 8 11 14,84.9
2'F-ANA at 3 6 8 13,890
2'F-ANA at 1 2 4 6 8 9 10 11 12 13,51.3
2'F-ANA at 2 5 9 11 12 13,97.1
2'F-ANA at 1 2 3 4 8 10 12 15,79.6
2'F-ANA at 1 3 7 9 10 12,118
2'F-ANA at 1 6 7 9 10 11 12 15,65.6
2'F-ANA at 1 2 3 4 7 10 13 15,56.7
2'F-ANA at 1 2 5 6 7 8 13 14,44

# A few entries again (series 3):
Substitution,normalised enrichment score
PMIAKDLMCELDE [N6D],0.196
PMIAWNLMCELDE [K5W],-0.0735
PMIAKNLMVELDE [C9V],0.718
PMIAKVLMCELDE [N6V],0.206
PMIADNLMCELDE [K5D],-0.247
PMIAKNLQCELDE [M8Q],0.0197
PEIAKNLMCELDE [M2E],0.952
